Measured values pooled from the literature.
A part holds a random share of what one study measured. Substitutions count along the parent as printed.

Sample 1
Target: Interferon regulatory factor 3, full length, phosphomimetic (IRF3, Homo sapiens, UniProt Q14653, residues 1-427, S386D/S396D/S398D/S402D/T404D/S405D)
Sequence of UniProt Q14653 (whole entry, unmodified, looked up): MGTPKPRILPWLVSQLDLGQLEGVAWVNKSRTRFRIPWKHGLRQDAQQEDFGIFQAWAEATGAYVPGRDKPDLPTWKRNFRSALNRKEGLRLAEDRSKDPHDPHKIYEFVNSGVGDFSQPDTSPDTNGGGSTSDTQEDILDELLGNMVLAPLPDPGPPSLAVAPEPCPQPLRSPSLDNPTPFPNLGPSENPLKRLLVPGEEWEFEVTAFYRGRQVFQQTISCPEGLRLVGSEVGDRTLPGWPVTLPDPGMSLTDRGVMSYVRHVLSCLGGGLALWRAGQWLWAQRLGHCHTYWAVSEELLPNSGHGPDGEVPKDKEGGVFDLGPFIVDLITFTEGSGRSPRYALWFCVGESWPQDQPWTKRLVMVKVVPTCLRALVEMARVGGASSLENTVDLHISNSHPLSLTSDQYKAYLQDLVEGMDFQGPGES
Method: protein-binding microarray
Molecule type: double-stranded DNA, one strand shown
Matrix: in vitro
Tested at: 2540 nM top
Notes: 60-bp whole probe
Together with: salmon DNA 0.4 mg/ml
Baseline: random background probes
Reading: higher = stronger binding
Endpoint: fitted relative affinity
All sequences stand within: GCCTAGCAC … GTCTTGATTCGCTTGACGCTGCTG
GACGGTTACCTACTGCTGACGTGCTAG: 1.66 z-score
TCAGATGTGTATATGACACTGTGCTAG: -0.19 z-score
GACGGACTGGGGTATCGGGAGGTGCTA: -0.775 z-score
TTATATCTCAGTCTCGATTAGTGCTAG: 0.946 z-score
GACGATCTCAGTCTCGAGTCGTGCTAG: 1.08 z-score
GAGGGTCTCGGACTGGGGACGTGCTAG: -0.997 z-score

Sample 2
Target: Prothrombin, mature alpha-thrombin (F2, Homo sapiens, UniProt P00734)
Method: aptamer microarray, sandwich
Molecule type: DNA with 2'F-ANA
Matrix: in vitro
Tested at: 200 nM
Notes: whole 15-mer aptamer, many near background
Together with: Cy3 exosite-II aptamer, 400 nM
Reading: higher = stronger binding
Endpoint: mean fluorescence intensity
GGTTGGTGTGGTTGG (2'F-ANA at 1 2 3 4 7 9 15): 156 a.u.
GGTTGGTGTGGTTGG (2'F-ANA at 2 4 6 8 10 11 12 13 14 15): 57.9 a.u.
GGTTGGTGTGGTTGG (2'F-ANA at 3 4 5 6 7 9 11 12 13): 87.9 a.u.
GGTTGGTGTGGTTGG (2'F-ANA at 1 6 10 11 14): 69.3 a.u.

Sample 3
Target: CCNA1, cyclin fold, Cln2 fusion (human)
Method: yeast growth competition, sequencing
Matrix: yeast
Notes: weak parent motif
Baseline: not given
Reading: higher = stronger binding
Endpoint: normalised enrichment score
Starting sequence: CDKN1A docking peptide (human); SKACRRLFGPVDS; partner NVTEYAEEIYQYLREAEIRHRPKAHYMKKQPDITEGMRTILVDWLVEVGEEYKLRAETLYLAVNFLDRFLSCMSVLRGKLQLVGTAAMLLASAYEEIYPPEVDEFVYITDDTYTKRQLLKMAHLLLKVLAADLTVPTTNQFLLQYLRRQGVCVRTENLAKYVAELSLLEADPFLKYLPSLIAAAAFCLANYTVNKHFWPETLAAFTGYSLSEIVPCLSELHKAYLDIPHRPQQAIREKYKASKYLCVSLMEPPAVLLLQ
K2A: 0.432
F8W: -0.195
C4S: 0.386
P10R: 0.695
G9P: 1.12

Single results of other studies
PhoQ, residues 284 288 289 292 302 303 TYGVAM  fold induction (PhoP, residues 12 14 15 18 19 AGCRL (Escherichia coli, UniProt P23836); Sort-seq, item: YFP reporter; E. coli; PhoQ-PhoP variant library, together with: 10 µM Mg2+; baseline: high Mg2+ state, higher = stronger signaling): 13.3

Some of these lines once more (sample 3):
C4S: 0.386
P10R: 0.695
